Results gathered from unrelated publications.
Target: Serine/threonine-protein kinase 32C (STK32C, Homo sapiens, UniProt Q86UX6)

SMILES	observed	action	method	concentration	relative to	quantity	value
CC(C)=CC1OC(C)(C)C2C=C3C(=O)C(Cl)=CC(O)C3C3C(O)C4OC4C(=O)C132 (centres unmarked)	cell-free assay	–	competition with immobilised ligand	10 µM	–	remaining binding	100%
CNC(=O)C1CCN(c2cc(C)c(F)cc2NC(=O)c2ccc(-c3cc(O)ccc3C)c(C)c2)CC1	binding	–	competition with immobilised ligand	1 µM	–	remaining binding	70%
CNC1C[S+]2CC[S+]3CC[S+](C1)[Ru-4]321([N]=C=S)[n]2c3ccc(OC)cc3c3c4c(c5cc(F)c[n+]1c5c32)C(=O)NC4=O (centres unmarked)	–	–	KinomeScan	0.1 µM	untreated	remaining binding	100%
Nc1ncc2c(n1)-c1c([nH]c3ccc(C4=CCOCC4)cc13)CCC2	binding	–	competition with immobilised ligand	1 µM	–	remaining binding	98%
C=CC(=O)N1Cc2nc(-c3cc(-c4cc(Cl)cnc4Cl)c(F)cc3F)n(-c3ccncn3)c2C1	cell-free assay	inhibitor	–	1 µM	–	inhibition	5.6%
CN1CCN(Cc2ccc(-c3ccc(CO[C@H]4CCC[C@@H]4NC(=O)c4cc(-c5cnn(C)c5)cnc4N)cc3)cc2)CC1	enzyme activity	inhibitor	–	0.1 µM	–	inhibition	-9%
CN1CCN(Cc2ccc(NC(=O)c3cccc(C#Cc4cnc(N)c5ncccc45)c3)cc2C(F)(F)F)CC1	cell-free assay	–	competition with immobilised ligand	50 nM	–	remaining binding	67%
CC(=O)N1c2ccc(-c3ccc(CNC(=O)c4cn5cc(-c6cnc(N)nc6)nc(N6CCOCC6)c5n4)cc3)cc2CC[C@@H]1C	binding	–	competition with immobilised ligand	10 µM	–	remaining binding	75%
COc1ccc(NC(=O)Nc2ccc3c(c2)C(=O)N(C(C)CO)CC(C)C(CN(C)Cc2ccc4c(c2)OCO4)O3)cc1 (centres unmarked)	binding	–	competition with immobilised ligand	10 µM	–	remaining binding	91%
NC(=O)C[C@H]1CCc2sc3ncnc(O[C@H]4CC[C@H](N5CCOCC5)CC4)c3c21	enzyme activity	inhibitor	–	10 µM	–	inhibition	-9%
COc1cc(Nc2nc(C)cc(-c3cnn4nc(OC)ccc34)n2)cc(C(F)(F)F)c1	binding	–	competition with immobilised ligand	1 µM	–	remaining binding	87%
Nc1ncc(-c2cc(-c3cnn(CC(F)(F)F)c3)ncc2F)nc1C(=O)NC1CNCC(F)C1 (centres unmarked)	enzyme activity	–	–	1 µM	DMSO control	remaining activity	95.5%
C=C1CCCCCCCCCC(CO)C1=O (centres unmarked)	cell-free assay	–	competition with immobilised ligand	10 µM	–	remaining binding	98%
C=CC(=O)N1CCCC(n2c(=O)c3ncccc3n(Cc3ccc(Oc4ccccc4)cc3)c2=O)C1 (centres unmarked)	cell-free assay	–	competition with immobilised ligand	1 µM	–	remaining binding	94%

Some of these lines once more:
SMILES	observed	action	method	concentration	relative to	quantity	value
CN1CCN(Cc2ccc(NC(=O)c3cccc(C#Cc4cnc(N)c5ncccc45)c3)cc2C(F)(F)F)CC1	cell-free assay	–	competition with immobilised ligand	50 nM	–	remaining binding	67%
